Assay results gathered from unrelated publications.
Lines come from different studies, so protocols differ.
Target: Bone morphogenetic protein receptor type-2 (BMPR2, Homo sapiens, UniProt Q13873)

SMILES	test	setting	how to read	measurement	result
COc1ccc(NC(=O)Nc2ccc3c(c2)C(=O)N(C(C)CO)CC(C)C(CN(C)Cc2ccc4c(c2)OCO4)O3)cc1 (stereo not shown)	binding, competition with immobilised ligand	10 µM	–	remaining binding	100%
Cc1cnc2nc1Nc1cccc(c1)COC/C=C/COCc1cc(ccc1OCCN1CCOCC1)N2	–	concentration not given	–	percent of control	90%
NC(=O)[C@@H](O)C[C@H]1CCc2sc3ncnc(O[C@H]4CC[C@H](N5CCOCC5)CC4)c3c21	enzyme activity, inhibitor	10 µM	–	inhibition	37%
COc1cc(Nc2nccc(-c3cnn4nc(OC)ccc34)n2)cc(C(F)(F)F)c1	binding, competition with immobilised ligand	1 µM	–	remaining binding	77%
Cc1ccc(-c2c(/C=C(\C#N)C(=O)NC(C)C)n(CCCO)c3ncnc(N)c23)cc1	cell-free assay, competition with immobilised ligand	1 µM	–	remaining binding	72%
COc1c(Cl)cccc1Nc1c(-c2ccncc2C#C[C@@]2(C)CCCN2C(=O)/C=C/CN(C)C)[nH]c2c1C(=O)NCC2	cell-free assay, competition with immobilised ligand	3 µM	–	remaining binding	91%
CCN1CCN(Cc2ccc(C(=O)Nc3ccc(C)c(NCc4cnc5[nH]ccc5c4OC)c3)cc2C(F)(F)F)CC1	binding, competition with immobilised ligand	1 µM	–	remaining binding	84%
CNC(=O)C1CCN(c2cc(C)c(F)cc2NC(=O)c2ccc(-c3cc(O)ccc3C)c(C)c2)CC1	binding, competition with immobilised ligand	1 µM	–	remaining binding	90%
C=CC(=O)N1CCc2ccc(-n3c(=O)ccc4cnc5ccc(-c6cnn(C)c6)cc5c43)cc21	KINOMEscan	1 µM	baseline: DMSO control	remaining binding	100%
CN1CC[C@@H](COc2cnc(C#N)cc2-c2ccn3nc(NC(=O)C4CC4)cc3c2)C1	enzyme activity, inhibitor	1 µM	–	inhibition	-9%
CN1CCN(Cc2ccc(-c3ccc(CO[C@H]4CCC[C@@H]4NC(=O)c4cc(-c5cnn(C)c5)cnc4N)cc3)cc2)CC1	enzyme activity, inhibitor	0.1 µM	–	inhibition	-3%
CN1CCN(Cc2ccc(NC(=O)c3cccc(C#Cc4cnc(N)c5ncccc45)c3)cc2C(F)(F)F)CC1	cell-free assay, competition with immobilised ligand	50 nM	–	remaining binding	80%
Nc1ncc2c(n1)-c1c([nH]c3ccc(C4=CCOCC4)cc13)CCC2	binding, competition with immobilised ligand	1 µM	–	remaining binding	72%

Some of these lines once more:
SMILES	test	setting	how to read	measurement	result
C=CC(=O)N1CCc2ccc(-n3c(=O)ccc4cnc5ccc(-c6cnn(C)c6)cc5c43)cc21	KINOMEscan	1 µM	baseline: DMSO control	remaining binding	100%
CN1CC[C@@H](COc2cnc(C#N)cc2-c2ccn3nc(NC(=O)C4CC4)cc3c2)C1	enzyme activity, inhibitor	1 µM	–	inhibition	-9%
